Published values from different studies.
A part holds a random share of what one study measured. Substitutions count along the parent as printed.

Study 1
Target: CCNB2, cyclin fold, Cln2 fusion (human)
Method: yeast growth competition, sequencing
Sample: yeast
Notes: weak parent motif
Relative to: not given
Direction: higher = stronger binding
Parent: CDC6 docking peptide (human); TLKGRRLVFDNQL; partner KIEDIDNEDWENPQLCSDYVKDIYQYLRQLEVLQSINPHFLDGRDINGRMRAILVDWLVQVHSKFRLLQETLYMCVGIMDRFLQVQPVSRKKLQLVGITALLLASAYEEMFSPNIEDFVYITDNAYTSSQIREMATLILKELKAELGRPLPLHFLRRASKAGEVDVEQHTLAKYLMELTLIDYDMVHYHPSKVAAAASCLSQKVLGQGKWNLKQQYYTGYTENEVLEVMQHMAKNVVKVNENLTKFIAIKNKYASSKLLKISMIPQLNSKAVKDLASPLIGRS
`L7H`: “normalised enrichment score” 0.546.
`F9D` — result for “normalised enrichment score”: -0.0042.
For `L13W`, “normalised enrichment score” read 0.0904.
`D10Q`: “normalised enrichment score” 0.461.
For `L13V`, “normalised enrichment score” read 0.00627.
`Q12G`: “normalised enrichment score” 0.762.
`V8M`: “normalised enrichment score” -0.0295.
For `L7I`, “normalised enrichment score” read 0.78.

Study 2
Target: POU, POU domain (Salpingoeca helianthica)
Method: Spec-seq
Form: double-stranded DNA, one strand shown
Sample: in vitro
Tested at: not given
Notes: whole probe, mean of replicates
Relative to: not given
Direction: lower = stronger binding
Shared flanks, not repeated: GAGTCGTCTCGTCAGCAC … CCGTAGAGCACTCAGGTC
Construct (chain): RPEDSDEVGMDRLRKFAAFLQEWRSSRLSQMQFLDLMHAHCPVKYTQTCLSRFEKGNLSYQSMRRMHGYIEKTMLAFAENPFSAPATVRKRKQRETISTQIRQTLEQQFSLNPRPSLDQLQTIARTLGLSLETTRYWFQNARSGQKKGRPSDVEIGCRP
`ATGATAAT` — result for “relative binding energy”: 0.325 ln ratio.
`ATGCCATG` — result for “relative binding energy”: 1.58 ln ratio.
Under “relative binding energy”, `CTTCTAAT` is recorded as 0.473 ln ratio.
For `ATGCATGG`, “relative binding energy” read 1.37 ln ratio.
For `AAGGTAAT`, “relative binding energy” read 0.8 ln ratio.
`ATGCTGTG` — result for “relative binding energy”: 1.04 ln ratio.
`GCGTTAAT`: “relative binding energy” -0.151 ln ratio.
Under “relative binding energy”, `CGATTAAT` is recorded as -0.322 ln ratio.

Study 3
Target: Sal-like protein 4, full length isoform A (SALL4, Homo sapiens, UniProt Q9UJQ4, residues 1-1053)
Chain of UniProt Q9UJQ4 (whole entry, looked up): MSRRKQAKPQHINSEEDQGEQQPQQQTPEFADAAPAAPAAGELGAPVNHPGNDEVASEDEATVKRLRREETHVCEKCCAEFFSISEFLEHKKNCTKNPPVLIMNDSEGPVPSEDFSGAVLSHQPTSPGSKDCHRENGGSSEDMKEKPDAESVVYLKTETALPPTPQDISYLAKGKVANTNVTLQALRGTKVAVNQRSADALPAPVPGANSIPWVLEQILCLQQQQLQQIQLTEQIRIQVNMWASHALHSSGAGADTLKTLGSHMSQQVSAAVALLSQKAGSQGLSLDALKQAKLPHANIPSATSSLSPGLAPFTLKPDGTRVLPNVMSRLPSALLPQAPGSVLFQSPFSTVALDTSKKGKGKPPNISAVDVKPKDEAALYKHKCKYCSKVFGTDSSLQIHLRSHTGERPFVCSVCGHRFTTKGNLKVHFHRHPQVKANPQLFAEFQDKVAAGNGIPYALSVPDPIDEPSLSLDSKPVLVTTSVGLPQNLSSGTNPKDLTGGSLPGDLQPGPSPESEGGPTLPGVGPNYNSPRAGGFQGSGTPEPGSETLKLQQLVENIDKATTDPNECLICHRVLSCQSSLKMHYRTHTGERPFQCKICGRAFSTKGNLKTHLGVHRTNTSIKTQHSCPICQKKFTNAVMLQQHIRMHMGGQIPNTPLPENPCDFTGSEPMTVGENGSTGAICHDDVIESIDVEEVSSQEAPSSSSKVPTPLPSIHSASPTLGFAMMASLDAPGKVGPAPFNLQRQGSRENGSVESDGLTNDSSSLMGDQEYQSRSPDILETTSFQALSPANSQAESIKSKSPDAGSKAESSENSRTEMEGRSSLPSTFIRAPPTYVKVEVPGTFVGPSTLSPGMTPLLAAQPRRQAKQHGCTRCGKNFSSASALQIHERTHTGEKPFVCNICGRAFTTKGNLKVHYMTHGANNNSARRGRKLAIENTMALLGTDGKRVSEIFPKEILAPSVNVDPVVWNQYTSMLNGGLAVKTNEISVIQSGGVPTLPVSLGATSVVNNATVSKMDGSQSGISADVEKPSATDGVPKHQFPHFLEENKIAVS
Method: universal PBM
Form: double-stranded DNA, one strand shown
Sample: in vitro
Tested at: 600 nM
Notes: 8-mer, flanks averaged, mean of replicates
Direction: higher = stronger binding
With `ACTACAAG` the E-score was 0.157.
For `ACACCAGG`, the E-score was -0.138.
`GGGATACA` has an E-score of 0.0316.
The E-score of `AAAGGCAA` is reported as 0.168.
For `CTGATAGA`, the E-score was 0.16.
`TTGCCCAA` has an E-score of 0.0745.
With `GGTGTTTA` the E-score was -0.0184.
For `CTGAGAGA`, the E-score was -0.103.

Other studies, line by line
For `CN(C)C[C@H]1CCn2c(c(C3=C(c4cn(C)c5ccccc45)C(=O)NC3=O)c3ccccc32)C1`, the remaining activity was 6.93% (Protein kinase C gamma type (PRKCG, Homo sapiens, UniProt P05129); enzyme activity, inhibitor; 0.5 µM; relative to: control).

Excerpt of the above (study 2):
`GCGTTAAT`: “relative binding energy” -0.151 ln ratio.
